Results from different studies.
Each numbered part is a random draw from the data of one study; scales do not carry over between parts.

Study 1 — technique: RNA Bind-n-Seq; molecule type: RNA; sample: in vitro; concentration: not given; relative to: input RNA pool; reading: higher = stronger binding
Target: RING finger protein unkempt homolog, zinc fingers 1-6, GST-SBP tag (UNK, Homo sapiens, UniProt Q9C0B0, residues 30-357)
UniProt Q9C0B0, sequence (30-357, looked up): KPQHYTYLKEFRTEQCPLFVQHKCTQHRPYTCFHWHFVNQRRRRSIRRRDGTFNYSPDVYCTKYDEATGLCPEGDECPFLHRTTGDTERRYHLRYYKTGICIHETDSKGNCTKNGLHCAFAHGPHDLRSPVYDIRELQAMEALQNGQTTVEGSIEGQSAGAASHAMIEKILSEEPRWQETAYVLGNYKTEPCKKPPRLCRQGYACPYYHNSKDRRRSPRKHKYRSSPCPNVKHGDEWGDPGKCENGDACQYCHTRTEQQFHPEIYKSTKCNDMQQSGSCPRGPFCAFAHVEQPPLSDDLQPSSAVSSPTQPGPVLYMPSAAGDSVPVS
Notes: RNA with constant flanks, human-mouse chimeric sites, ends assumed
Constant ends, left off below: GGGAGUUCUACAGUCCGACGAUC … CAACAGAGGAUUGAGCAUCA
Sequence	bound/input enrichment [ratio]
GUACUGCAGCAGCAGGGCAAGCUGCAGGAAGCUCUGAUGCAUUAUAAGGAGGCUAUUCGAAUUAGUCCUACCUUUGCUGAUGCCUACUCUAAUAUGGGAAACACUCUAAAGGAGAUGCAG	0.228
UUUGUAUUUAUGCUAAGCACGCGUGCUGGUGGUCUGGGCAUCAAUCUUGCAACUGCUGAUGUAGUCAUUUUAUAUGACUCAGAUUGGAAUCCCCAAGUUGAUCUUCAGGCUAUGGACCGU	0.128
CUCAGAGAUGUGGCAUAUCAGUAUGUGAAAAAGGGGGCUCGUAUAUUUGUGGAAGGGAAAGUGGACUAUGGUGAAUACAUGGAUAAAAACAAUGUGAGGCGACAAGCAACAACAAUCAUA	0.322
GAAUCCUACUCAGGCGGUCCCACAACAACCAAGCUCACAGCAGCAGCAUCUUAGUCACAGUAGGGUAGUUUUGGGGCUCUGUGGCCAGGGUUUUAUUCACAUGCAGGUUUUGAAAAUGUA	0.865
GCGGCAGAAUCAUGGAGGACAUAAUGCAGCUCCCCAAAGCGCGCGUCAACGCCAGCAUGUUACCACAGUAUAUCGACAAGCCUGUCUGCUUCGUGGGGAAGCUGGAAAAGAUUCAUCCCA	0.143
GUUGCCAGGUUCCGGUGCCGUUGGGCUCGGUUCUCUCCUGAGCUACGGUCCCUGGCACUCUCAAUCCGCCAUCCAACAAACAUGGAUCAGGUAAUGCAGUUUGUGGAGCCCAGCCGGCAG	0.123
AAUUUCCGCAACUGUUUUUUAGACAUUCACAUCAGACUUACAGAGCACCUGGCCACAUUCUAGGUUUGUGUUAUUUCUCAGCUAUGGAUAUGAUCAAAUGAGAACACUGCUUAACUAAUG	0.495
UUAAUCCCCUUUACUGCUCCCCCACUUGUCAUGCUGAUAACAAAGUCUUAUAUCCCCGUCCUAGCUUUCACUCAGAUGGCUUAUGGAGCCGGUUUCCUAGCUUUCUUGGGUGGGAUCAGA	0.335
UCUUUAAAAAAAAAAUUACCUUUUCUGACAGUGCUUUCCCUCCCAUAGAUCCACGUUCAAGCUCAAAGAGCAAAGGCUUUGCACGGAUCUGAUGAUGCUGAUGAAGAAAGAUUUCUGAGA	0.43
UGUGCAUAUGAUGCUUGAGAUGGUUUUUGCAAAAGCAGACAUCGCUGCAAGGUAAUCACAAUAGAUAAAAGUGGUAUUUUAAACCUUUGAAAUAAAUGGAUGUAACUGUACCUUGGUACA	0.623
GAGCCCAGUCGGCAGUUUGUAAAGGACUCAAUUCGGCUGGUUAAAAGAUGCACCAAACCCGACAGAAAAGAAUUCCAGAAGAUUGCCAUGGCUACAGCUAUAGGAUUUGCUAUCAUGGGA	0.288

Study 2 — technique: universal PBM; molecule type: double-stranded DNA, one strand shown; sample: in vitro; concentration: not given; reading: higher = stronger binding
Target: Sal-like protein 4, full length isoform B (SALL4, Homo sapiens, UniProt Q9UJQ4-2, residues 1-616)
Notes: 8-mer, flanks averaged, mean of replicates
Target sequence (chain): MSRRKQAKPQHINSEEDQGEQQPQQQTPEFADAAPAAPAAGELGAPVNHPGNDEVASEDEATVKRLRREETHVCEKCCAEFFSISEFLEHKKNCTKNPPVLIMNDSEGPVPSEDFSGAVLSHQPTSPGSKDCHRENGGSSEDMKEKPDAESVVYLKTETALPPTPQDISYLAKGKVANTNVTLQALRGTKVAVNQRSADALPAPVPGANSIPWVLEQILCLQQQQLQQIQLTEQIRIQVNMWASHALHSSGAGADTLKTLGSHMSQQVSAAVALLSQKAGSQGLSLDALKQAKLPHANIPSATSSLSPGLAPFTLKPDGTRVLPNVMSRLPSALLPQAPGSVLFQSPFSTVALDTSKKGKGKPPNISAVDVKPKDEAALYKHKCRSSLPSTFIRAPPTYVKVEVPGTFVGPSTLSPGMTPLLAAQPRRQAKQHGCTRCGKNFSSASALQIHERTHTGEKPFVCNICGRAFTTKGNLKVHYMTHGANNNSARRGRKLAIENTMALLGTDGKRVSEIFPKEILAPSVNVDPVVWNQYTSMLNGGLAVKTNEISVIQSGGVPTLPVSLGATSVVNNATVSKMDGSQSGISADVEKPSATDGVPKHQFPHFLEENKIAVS
Sequence	E-score
ACTTCAGC	-0.115
CAGAGAGA	-0.207
AGCATCAT	0.136
GCCTAAGA	-0.0442
AGGAGCTG	-0.208
AGCGCTTC	0.0246
CGGGTGAG	-0.241
CAAATGCG	-0.00679
ACGGTCAC	-0.258
ACTTTAAA	0.252
CCGCCCGC	-0.325
ATCTTGGC	0.0464
CAGGCAGG	-0.168
AGGTCAGA	-0.123
CGCCAATC	-0.14
CAAGCGGA	-0.26
ACTACCAT	0.128

Study 3 — technique: RNA Bind-n-Seq; molecule type: RNA; sample: in vitro; concentration: 200 nM; notes: whole 134-nt RNA, ends assumed; with: 150 mM KCl; relative to: input library; reading: higher = stronger binding
Target: Ras GTPase-activating protein-binding protein 1, full length (G3BP1, Homo sapiens, UniProt Q13283)
UniProt Q13283, sequence (whole entry, looked up): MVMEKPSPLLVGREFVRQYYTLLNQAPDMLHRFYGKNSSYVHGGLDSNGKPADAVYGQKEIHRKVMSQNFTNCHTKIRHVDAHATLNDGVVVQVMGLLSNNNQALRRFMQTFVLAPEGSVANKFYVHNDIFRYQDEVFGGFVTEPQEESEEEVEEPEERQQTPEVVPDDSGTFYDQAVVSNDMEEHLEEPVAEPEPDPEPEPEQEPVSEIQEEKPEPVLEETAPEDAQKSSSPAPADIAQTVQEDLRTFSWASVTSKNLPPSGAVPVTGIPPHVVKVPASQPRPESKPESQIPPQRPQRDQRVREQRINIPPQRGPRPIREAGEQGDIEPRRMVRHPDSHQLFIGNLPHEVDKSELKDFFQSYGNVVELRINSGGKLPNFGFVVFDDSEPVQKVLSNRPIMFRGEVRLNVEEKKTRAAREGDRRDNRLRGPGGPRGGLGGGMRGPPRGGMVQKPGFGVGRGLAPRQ
Constant ends, left off below: GGGAGUUCUACAGUCCGACGAUC … UGGAAUUCUCGGGUGUCAAGG
Sequence	log2 enrichment
CUGUGCUACACAUCGUAUGUACCGAAUCGGGGUUUUUUUGGGGUUUUUUUGGUUUUUUUGGAAAGUAUUAUGUUACGCCGUUCGGAUCUG	-0.787
UCCUGUGCUACACAUCGUAUGUACCGAAUCGGAAAAAAGGGGAAAAAAGGGAAAAAAGGAAAGUAUUAUGUUACGCCGUUCGGAUCUGCA	-0.645
AAGUCCUGUGCUACACAUCGUAUGUACCGAAUCGGGAGGGAAAGGGUUUUUUUGGGAAAGUAUUAUGUUACGCCGUUCGGAUCUGCACUU	0.221
GCAGGAAGUAAAAACAAAUGGAAAUGCUUCGGAUGGUGGCAGGGGUGGGGGUUGCUAAGGAAAGGGUGGGAUGGGAGUGGGUAAAGAGUU	1.57
UCAAGUCCUGUGCUACACAUCGUAUGUACCGAAUCGGAGGAAAAAAAGGUUUGGAAAGUAUUAUGUUACGCCGUUCGGAUCUGCACUUCC	-1.22
UGUGCUACACAUCGUAUGUACCGAAUCGGGGUUUUUUUGGGGAAAAAAAGGGGUUUUUGGGGAAAGUAUUAUGUUACGCCGUUCGGAUCU	-0.428
CACAGACAACACGCACCCAGACAGACACAGAGGGAAGGGGUUGGGAUGGGGACAGGGUGCACAGCAGGGCGGGGUAGGACCCCAGCCCCU	2
GUAAGUGUGGCAAUGUGAACUGAAGCUGAUGGGCUGAGAACAUGGACUGAGCUUGUGGUGUGCUUUGCAGGAGGACUUGAAGCAGAGUUC	1.05
AAGUCCUGUGCUACACAUCGUAUGUACCGAAUCGGGGUUUUGGGUUUUGGGUUUUGGAAAGUAUUAUGUUACGCCGUUCGGAUCUGCACU	-0.771
CACAGACAACACGCACCCACACAGACACAGAGGGAAGAAAUUGGGAUGGGGACAGGGUGCACAGCAGGGCGGGGUAGGACCCCAGCCCCU	0.844
UGGGAGGUGUAUUUUGUUUAUUUUUUUAGCUCAUUUCCAGGGGUGGGAAUUUUUUUUUAAUAUGUGUCAUGAAUAAAGUUGUUUUUGAAA	0.163
CCUCAAGUCCUGUGCUACACAUCGUAUGUACCGAAUCGGUGGGGUGGUGGGGAAAGUAUUAUGUUACGCCGUUCGGAUCUGCACUUCCAG	0.42
AGUCCUGUGCUACACAUCGUAUGUACCGAAUCGGGUGGGUUUUUUUGGGAAAAAGGGAAAGUAUUAUGUUACGCCGUUCGGAUCUGCACU	-0.18
CCUGUGCUACACAUCGUAUGUACCGAAUCGGGGUUUUUUGGGUUUUUUGGGUUUUUUGGGGAAAGUAUUAUGUUACGCCGUUCGGAUCUG	-0.555

Study 4 — technique: RNA Bind-n-Seq; molecule type: RNA; sample: in vitro; concentration: 365 nM; relative to: no-protein control; reading: higher = stronger binding
Target: RNA binding protein fox-1 homolog 2, RRM domain, GST-SBP tag (RBFOX2, Homo sapiens, UniProt O43251-10, residues 100-194)
Notes: natural RNA segment, single round, ends assumed
Constant ends, left off below: GGGAGUUCUACAGUCCGACGAUC … UGGAAUUCUCGGGUGCCAA
Target sequence (chain): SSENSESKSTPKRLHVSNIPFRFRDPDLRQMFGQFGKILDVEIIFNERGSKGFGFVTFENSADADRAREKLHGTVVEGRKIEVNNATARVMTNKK
Sequence	RBNS enrichment (R)
ACCUCCUGGCUAUUUUUGAUGAGAAUGAGCUUGAGCUGCUGAUGUGUGGGACUGGAGACAUCAAUGUAUCUGACUUCAAAGCCCAUGCUGUAGUGGUUGGUGGAUCCUGG	0.898
GGAUGGAGACUGGAACCAUCCUACUGCUGCCAGCUGGAAGCUUUUCUCAGAGAGCCAAAGCUGAAUUCUCAGAGCUCCAAGGCCCUCCACAAGAUGCUAGAGGAAGCUCA	0.238
GACCGUCGUAGGCUUCCAUUUUUCCCAUCACCCACUGUAAAGGCUCAGAGUUGAACUACCACUGUGGCUGCUUAUUGCUUCCUCCUAAGUUGCUACUGUUCAUAGAACUG	0.409
AAGACCCCAAAGGGCCCAGGCCAGGAGACUGUUAAAGUGAAAAGGCAAUCUAUGACUCACCUUGCUCUGCCAUCCCUGGCAGCCCCCACCGGUGUCCUGUUCCUGCCACA	0.172
UCUGCCUCCUUGCCUGCCUACAAGGUGCCUGGUUUGCAGCAGGCUCUCCGCUCUUUCCAGCAAAGCUGCUCAGAGAGGGUGUCCAGCACAGUGGAGAGGCCGGAAGUGAG	0.68
UGGUGCUGUACAGAAGGCAUUAAACUAAUGUAAACUACAUCCUAUGUUUGGUUCAUUUGAAAUUUUGGAAUAAUUGUGAAUGUAUGAUAUUGUAAAAUUAAAAAAAUAUA	0.948
CUACAGAGUGAGUUCCAGGACAGCCGGGGCUAUACAGAGAAACCCUGGGGAAACCCUUGGGGAAAAAAAAACAGUUCCUAAGUAGUGUGCCUGUCAACUUUGCAGACUGC	0.281
UGCCUUGAACUUAUUAACAUGGCCAUUAUAAGAAUAAAAUAUGUAGUUGUGUCUUAAUGGAAUUAAUAAAUGUCAUUUCACUACUGGUGUUCUGUUUCAAUGUAUAAGGA	0.468
UACCCUUUGCCUGCAGGUCAGUUGUAAUAAAUCUAGGUUGUGAUGAUGGUCUUGUAAUCUGAUUUUCUGCAGUCAUACCCCGAGAAAGAAAUUCAAGAAAAAAUGACAUU	1.35
GAGAUGUCUGGAAGGGUUACUUAGCCAAAUUUUACUCAAGCCAAUUAGGAGCUGAUAUUAUCAGUUGGAAUUAAGAGAACUCCAGAGGUUUCCAUUUCAAACAAAAUUUU	0.606
UUUUUUUUUAAAAAAAACAAAGCAACAAAUUGACUAGAUAUAGGAUAAUUGAAACAUGUUAAAACAUUUAAUAUUGUAUAGGAUAUUGCUAAUUGUGUAUAUGUUGGUUU	0.532
CUCUCCCCCAGGAGCCCUGCUGCUUUGCUUGGUGGUAGGGCAGGAGAGCAAACAAACAGUCAUGGUCUAAAACCCACAUAGCACUUUGCUCUUAGUUACAUGUAAAAUUU	0.745

A few entries again (study 2):
Sequence	E-score
CAAATGCG	-0.00679
CAGAGAGA	-0.207
ACTTTAAA	0.252
AGCGCTTC	0.0246
CGGGTGAG	-0.241
ACTACCAT	0.128
AGGTCAGA	-0.123
AGGAGCTG	-0.208
GCCTAAGA	-0.0442
